# Experimental data of several laboratories.
# Every numbered part comes from another study and shows a few of its results, in no order. Positions count from the first letter of the parent shown.

# Block 1
# Target: RNA binding protein fox-1 homolog 2, RRM domain, GST-SBP tag (RBFOX2, Homo sapiens, UniProt O43251-10, residues 100-194)
# Method: RNA Bind-n-Seq
# Form: RNA
# Medium: in vitro
# Concentration: 365 nM
# Notes: natural RNA segment, single round, ends assumed
# Reference: no-protein control
# Reading: higher = stronger binding
# All sequences stand within: GGGAGUUCUACAGUCCGACGAUC … UGGAAUUCUCGGGUGCCAA
# Construct (chain): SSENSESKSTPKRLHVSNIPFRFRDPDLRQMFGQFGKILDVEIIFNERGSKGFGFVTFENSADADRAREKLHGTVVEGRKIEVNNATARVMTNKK
Sequence,RBNS enrichment (R)
AGUUUUUCUAAGCUAGAACCUUUGAGUCCCCCAAACUGCCUGAAGACUUAAGUUUUGUGGGCACUGGAAGUCACUUUGAUAGAUGGAUUGAAACUGUUCCUAUUUGCCCU,0.396
CACUGGCUAAUAGAGUACAUAAUUUUUCCAUUUUCCAUUUUUUGUUUUUACUUACUACUGAAGGAUCUCAGAUGUAAAAUUAUGUAUUUGGUUUGAGAUGGCCACUUAUU,0.582
GGCUGCCCAACCCUGACUCAGAGAAUGAGGGUGGCUUGGACCCCUGGGAAUCAGGCCGCCGAGGGCUGAGCUCCAGAGCCGCACCAUCUGCCACAAACAGAAUUCGAGAC,0.356
ACAAAAUCGAGAAUGUAUCCCCAGAAUCAGUACAGCCAGUUGUUUGAACAUUCUUAAAGUAUCUCGUGGUAUAAUUUCUGUUGACUUCAAGCUUUAAUUUGGAUCCACAC,0.428
UGAUAUUUCUUGAAGUCUAACUCUGUGCUAACAGAUCUUCAUUUUAAAUAGAAUACGGUUUUAAUUUUUGAUAAGCUGCUGAAUUUUAAAGAGAGUUUUUUGGGGCCACC,1.15
CUCAUGGGAAGAAAACUGUACACACUGAACGCAUAGCCCGCUUAGAGAUCACAUCGCCUCUUAGAGACCAUGUCACCUCCUAUCUGUCACCCUUCCUCUUCCUGUCACAG,0.292
GCAGCCUCUCCUUGUCAUUCUCCCACCCCACAUCCCAUUUUUUAAAGCCCUUUUGGUAAAAACCAACAGGUUGUGGCCGCAGACCUCAGAUGGACCCGGCCCAUCCCUGG,0.528
GUAAAUGUUUUUUGGAGCUAGAUUAGCUGCCUGCCAACCUUAGAACUGCAAAGCCAUUCCUGACCUGUAAACCUCAGCUCUCCAUCUCUAUAAGAGGUAUAGCCUGGGCU,1.78
CUCAUCUAUAACAUGCAUUUGUCUUUGUAAUGUCACCACCUUCCCAGCUCUCCCUCUGGCCCUGCCUUCUUCGGGGAACUCCUGGAAAUAUCAGUUACUCAGCCCUGGGC,0.653
AUAGGCUGUAGAACAGUAAAGUGGGAACUGGGCGGACUUUUCUAACAGUCGUACUUUUAUAAAGCGGUAUUUGGGUGUUUUUUCCCUCGAAUAGGUACUUUUGGAAGUUC,0.421
UCCCACCAGAGGGACGUGUGUGUGCCUGCAGACGGCCCGGGAGCUGUGUGUCUCCGCCAGAGUCACAGCAGUGCCGAGGUGUCCGCGGCAGACCACACAGACCGUCUGAA,0.156
CACAUAGUAGGUGCUUGGUAAAAUAUCUGUGGUACUGAAUGUUGAGCACAGGUGCCCAAGUCAGAGAGCUGAAAGCCAUCACCCAAUGACUGCCCCUUCAUUCGGGUCUC,1.46

# Block 2
# Target: ABI1, truncated, D143A, DHFR fusion (Arabidopsis thaliana)
# Method: DHFR PCA, deep sequencing
# Medium: yeast
# Notes: methotrexate growth selection, single substitutions
# Added: (+)-ABA 710 µM
# Reference: wild-type fitted maximum
# Reading: higher = stronger binding
# Starting sequence: PYL1, truncated, DHFR fusion (Arabidopsis thaliana); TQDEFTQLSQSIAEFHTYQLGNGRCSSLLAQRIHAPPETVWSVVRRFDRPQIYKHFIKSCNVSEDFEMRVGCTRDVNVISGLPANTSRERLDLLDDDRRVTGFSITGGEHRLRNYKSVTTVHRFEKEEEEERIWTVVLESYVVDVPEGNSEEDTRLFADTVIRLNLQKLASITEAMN
Substitution,relative binding score [%]
E130N,106
C25Y,51.5
H122R,46.4
H122K,43.7
W134K,101
L93K,105
Q2G,91.8
V136S,67.5
F47I,9.7
C60H,25.9
S150D,101

# Block 3
# Target: Probable WRKY transcription factor 33, C-terminal DNA-binding domain (WRKY33, Arabidopsis thaliana, UniProt Q8S8P5, residues 346-449)
# Method: DNA-protein interaction ELISA
# Form: double-stranded DNA, one strand shown
# Medium: in vitro, bacterial lysate
# Concentration: not given
# Notes: whole dsDNA probe, crude lysate protein
# Reference: highest signal in screen
# Reading: higher = stronger binding
# Target sequence (chain): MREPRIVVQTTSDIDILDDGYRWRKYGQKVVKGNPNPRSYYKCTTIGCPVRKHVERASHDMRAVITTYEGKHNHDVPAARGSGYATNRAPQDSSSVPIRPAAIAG
Sequence,relative absorbance
AAAAAACCTTACCTCATCCCTATCCCAAAA,31.5 % of maximum
AAAAAATGTCTAGACTCGGACATTCGAAAA,29.2 % of maximum
AAAAAACACTCACACCTATACGGCTCAAAA,49 % of maximum
AAAAAATATGTTTTCGCTTTATTCTTAAAA,31 % of maximum
AAAAAACGCCGGACAATCAGGCGCTCAAAA,59.9 % of maximum
AAAAAATGGCTCGGGTTCCAAGGTTGAAAA,37.3 % of maximum
AAAAAATGTCTTCTTACACCCTCTAGAAAA,33.9 % of maximum
AAAAAAATCACGGTTCGACCTCCAGCAAAA,40.5 % of maximum
AAAAAAGGCGTCTGACTGTAACTCGTAAAA,99.8 % of maximum
AAAAAAGTGCGTTCACGCTTGTATCTAAAA,28.1 % of maximum

# Further values, each from its own experiment
Substance,target,assay,test system,setting,scale,measurement,result
"PhoQ, residues 284 288 289 292 302 303 SLANKL","PhoP, residues 12 14 15 18 19 LWHVM (Escherichia coli, UniProt P23836)","Sort-seq, refers to: YFP reporter",E. coli,"PhoQ-PhoP variant library, added: 10 µM Mg2+","reference: high Mg2+ state, higher = stronger signaling",fold induction,7.67
